# Assay results collected from several papers.
# Every numbered part comes from another study and shows a few of its results, in no order. Changes are numbered by the printed parent chain.

# Study 1
# Target: Sal-like protein 4, full length isoform A (SALL4, Homo sapiens, UniProt Q9UJQ4, residues 1-1053)
# Chain of UniProt Q9UJQ4 (whole entry, looked up): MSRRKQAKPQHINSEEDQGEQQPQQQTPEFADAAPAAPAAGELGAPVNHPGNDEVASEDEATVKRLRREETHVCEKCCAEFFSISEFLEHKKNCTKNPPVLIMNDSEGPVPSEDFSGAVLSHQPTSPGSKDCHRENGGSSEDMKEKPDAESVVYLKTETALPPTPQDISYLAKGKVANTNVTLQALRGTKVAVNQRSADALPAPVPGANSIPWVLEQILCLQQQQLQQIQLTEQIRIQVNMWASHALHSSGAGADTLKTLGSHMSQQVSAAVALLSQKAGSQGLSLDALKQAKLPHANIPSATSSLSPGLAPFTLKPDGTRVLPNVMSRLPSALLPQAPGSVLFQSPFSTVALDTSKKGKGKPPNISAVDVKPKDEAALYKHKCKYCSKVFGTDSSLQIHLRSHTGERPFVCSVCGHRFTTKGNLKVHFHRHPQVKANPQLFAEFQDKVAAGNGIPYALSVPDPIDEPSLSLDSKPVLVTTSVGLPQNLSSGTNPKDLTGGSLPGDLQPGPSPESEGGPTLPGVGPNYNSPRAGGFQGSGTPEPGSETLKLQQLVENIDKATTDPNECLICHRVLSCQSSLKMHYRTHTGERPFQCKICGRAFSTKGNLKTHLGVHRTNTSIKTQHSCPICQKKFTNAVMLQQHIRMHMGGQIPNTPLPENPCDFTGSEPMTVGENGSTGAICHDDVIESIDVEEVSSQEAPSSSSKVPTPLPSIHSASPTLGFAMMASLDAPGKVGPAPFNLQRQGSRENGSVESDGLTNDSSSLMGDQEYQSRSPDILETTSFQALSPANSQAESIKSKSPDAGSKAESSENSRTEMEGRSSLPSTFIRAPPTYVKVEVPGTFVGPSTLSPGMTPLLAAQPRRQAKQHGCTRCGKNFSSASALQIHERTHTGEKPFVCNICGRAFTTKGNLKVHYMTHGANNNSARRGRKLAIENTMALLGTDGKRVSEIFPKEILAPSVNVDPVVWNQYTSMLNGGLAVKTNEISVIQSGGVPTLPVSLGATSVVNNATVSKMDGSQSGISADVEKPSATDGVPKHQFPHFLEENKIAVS
# Method: universal PBM
# Form: double-stranded DNA, one strand shown
# Matrix: in vitro
# Concentration: 600 nM
# Notes: 8-mer, flanks averaged, mean of replicates
# Direction: higher = stronger binding
Oligonucleotide,E-score
GACACTAA,-0.069
TAGACCTA,0.103
TTGCCCAA,0.0745
CACCATGA,-0.122
CTGTGTCC,-0.149
AAACACTC,0.144
AAATATCA,0.354
ACTACCAG,-0.0807
AAGGCAGT,0.00873
CGTATGGA,0.0573

# Study 2
# Target: CCNF, cyclin fold, Cln2 fusion (human)
# Method: yeast growth competition, sequencing
# Matrix: yeast
# Notes: strong parent motif
# Baseline: not given
# Direction: higher = stronger binding
# Starting sequence: CDKN1A docking peptide (human); SKACRRLFGPVDS
Variant,normalised enrichment score
D12V,7.15
C4E,0.705
A3C,7.76
V11L,7.65
R6S,6.59
C4V,6.99

# Study 3
# Target: Interferon regulatory factor 5, full length, phosphomimetic (IRF5, Homo sapiens, UniProt Q13568-2, residues 1-514, S451D/S453D/S456D/S462D)
# Method: protein-binding microarray
# Form: double-stranded DNA, one strand shown
# Matrix: in vitro
# Concentration: 940 nM top
# Notes: 60-bp whole probe
# Together with: salmon DNA 0.4 mg/ml
# Baseline: random background probes
# Direction: higher = stronger binding
# Shared flanks, not repeated: GCCTAGCAC … GTCTTGATTCGCTTGACGCTGCTG
Oligonucleotide,fitted relative affinity
TTAGATTACAGTCTCGATTAGTGCTAG,2.47 z-score
TCAGGACTGGGTCTCGGTTAGTGCTAG,1.29 z-score
GACGGTCTCCTTTTCCAGACGTGCTAG,0.845 z-score
TTCTTTTTTTCTTTTATTAGGTGCTAG,2 z-score
GTAGGTCTCGGACTGGGTTAGTGCTAG,0.837 z-score
TCACATCTAGTTCTGCTACTGTGCTAG,0.276 z-score
TCAGTTTTGAGCTCTGTCACTGTGCTA,0.207 z-score
GAAGATCTCAGTCTCGAGACGTGCTAG,1.26 z-score

# Other studies, line by line
Substance,target,test,test system,setting,scale,quantity,result
"PhoQ, residues 284 288 289 292 302 303 SACGEM","PhoP, residues 12 14 15 18 19 NIMAP (Escherichia coli, UniProt P23836)","Sort-seq, measured: YFP reporter",E. coli,"PhoQ-PhoP variant library, together with: 10 µM Mg2+","baseline: high Mg2+ state, higher = stronger signaling",fold induction,2.91
